# Results gathered from unrelated publications.
# Each line is one published result; not all experiments were run side by side. ± marks the error that the study gave.
# AHR: Aryl hydrocarbon receptor (AHR, Homo sapiens, UniProt P35869)
# Neuromedin-U receptor 2: Neuromedin-U receptor 2 (Mus musculus, UniProt Q8BZ39)
Compound,target,test,system,setting,EC50
CNC[C@H](O)c1cccc(O)c1,"Alpha-1D adrenergic receptor, Δ1-79 (ADRA1D, Homo sapiens, UniProt P25100)","calcium mobilisation, agonist",COS-7 transfected,,8.32 nM
O=C1Nc2c(ccc(Cl)c2Cl)C1=NO,"CALM1/Kcnn2 (Homo sapiens, UniProt P0DP23+P70604)","ion current, activator, whole-cell patch clamp",,,1700 nM
Cc1ccc2ccc3ccc(C)cc3c2c1,AHR,"reporter gene, agonist, yeast LacZ reporter",Saccharomyces cerevisiae,18 h,1780 nM
CCCCC[C@H](O)/C=C/[C@H]1[C@H](O)CC(=O)[C@@H]1C/C=C\CCCC(=O)O,"PTGER1 (Homo sapiens, UniProt P34995, W310A)","IP1 accumulation, agonist",AD293,EP1 W310A mutant,61.9 nM
N[C@H](CNC(=O)c1ccc(-c2ccccc2Br)s1)C(=O)O,"Glutamate NMDA receptor; Grin1/Grin2c (Rattus norvegicus, UniProt P35439+Q00961, S688A)","receptor activation, positive modulator",rat,with: glutamate 300 µM,5.2 nM
CCn1c(-c2nc3cc(C(=O)N4CCC[C@@H](N)C4)cc(OC)c3n2C)cc2cccnc21,AHR,"agonist, FRET",,,> 100000 nM
O=C(O)C1=CCNCC1,"GABA-A receptor; alpha-1/beta-2/gamma-2 (Rattus norvegicus, UniProt P18508+P62813+P63138)","membrane potential, agonist, QP-DHM fluorescence",HEK293 expressing GABAA,,7800 nM
CC(C)C[C@H](NC(=O)[C@H](Cc1ccccc1)NC(=O)[C@H](Cc1ccc(O)cc1)NC(=O)CNC(=O)[C@H](CCCNC(=N)N)NC(=O)[C@H](CO)NC(=O)[C@H](CCC(N)=O)NC(=O)[C@H](CO)NC(=O)[C@H](C)NC(=O)[C@H](Cc1ccccc1)NC(=O)[C@@H]1CCCN1C(=O)[C@H](CO)NC(=O)[C@H](CCC(N)=O)NC(=O)[C@H](Cc1ccccc1)NC(=O)[C@H](CCC(=O)O)NC(=O)[C@H](CCC(=O)O)NC(=O)[C@H](CC(=O)O)NC(=O)[C@@H](NC(=O)[C@H](CCCNC(=N)N)NC(=O)[C@@H](N)Cc1ccccc1)C(C)C)C(=O)N[C@@H](Cc1ccccc1)C(=O)N[C@@H](CCCNC(=N)N)C(=O)N1CCC[C@H]1C(=O)N[C@@H](CCCNC(=N)N)C(=O)N[C@@H](CC(N)=O)C(N)=O,Neuromedin-U receptor 2,"Gq signalling, agonist, IP-1 accumulation",,from mean pEC50,0.575 nM
N[C@H](CNC(=O)c1cc(Br)c(-c2ccccc2F)s1)C(=O)O,"Glutamate NMDA receptor; Grin1/Grin2c (Rattus norvegicus, UniProt P35439+Q00961, F754L)","receptor activation, positive modulator",rat,with: glutamate 300 µM,20 nM
CC1=C(C(=O)OC(C)C)C(c2ccccc2Br)C2=C(CC(C)(C)CC2=O)N1 (centres unmarked),"ADGRG1 (Homo sapiens, UniProt Q9Y653, H381S)","agonist, GTPγS binding",,with: G13,6690 ± 560 nM
CC(C)C[C@H](NC(=O)[C@H](Cc1ccccc1)NC(=O)[C@@H](N)Cc1ccc(O)cc1)C(=O)N[C@@H](Cc1ccccc1)C(=O)N[C@@H](CCCNC(=N)N)C(=O)N1CCC[C@H]1C(=O)N[C@@H](CCCNC(=N)N)C(=O)N[C@@H](CC(N)=O)C(N)=O,Neuromedin-U receptor 2,"Gq signalling, agonist, IP-1 accumulation",,from mean pEC50,69.2 nM

# A few entries again:
Compound,target,test,system,setting,EC50
CC(C)C[C@H](NC(=O)[C@H](Cc1ccccc1)NC(=O)[C@@H](N)Cc1ccc(O)cc1)C(=O)N[C@@H](Cc1ccccc1)C(=O)N[C@@H](CCCNC(=N)N)C(=O)N1CCC[C@H]1C(=O)N[C@@H](CCCNC(=N)N)C(=O)N[C@@H](CC(N)=O)C(N)=O,Neuromedin-U receptor 2,"Gq signalling, agonist, IP-1 accumulation",,from mean pEC50,69.2 nM
